{"data": "Results pooled from the literature", "note": "Numbered parts are unrelated; each lists some results of a single study."}
{"data": "Study 1", "target": "Interferon regulatory factor 7, full length, phosphomimetic (IRF7, Homo sapiens, UniProt Q92985, residues 1-503, S101K/S471D/S472D/S475D/S476D/S477D/S483D/S484D/S487D)", "method": "protein-binding microarray", "molecule type": "double-stranded DNA, one strand shown", "medium": "in vitro", "concentration": "250 nM", "notes": "60-bp whole probe", "with": "salmon DNA 0.4 mg/ml", "relative to": "random background probes", "direction": "higher = stronger binding", "constant ends, left off below": "GCCTAGCAC … GTCTTGATTCGCTTGACGCTGCTG", "Construct (chain)": "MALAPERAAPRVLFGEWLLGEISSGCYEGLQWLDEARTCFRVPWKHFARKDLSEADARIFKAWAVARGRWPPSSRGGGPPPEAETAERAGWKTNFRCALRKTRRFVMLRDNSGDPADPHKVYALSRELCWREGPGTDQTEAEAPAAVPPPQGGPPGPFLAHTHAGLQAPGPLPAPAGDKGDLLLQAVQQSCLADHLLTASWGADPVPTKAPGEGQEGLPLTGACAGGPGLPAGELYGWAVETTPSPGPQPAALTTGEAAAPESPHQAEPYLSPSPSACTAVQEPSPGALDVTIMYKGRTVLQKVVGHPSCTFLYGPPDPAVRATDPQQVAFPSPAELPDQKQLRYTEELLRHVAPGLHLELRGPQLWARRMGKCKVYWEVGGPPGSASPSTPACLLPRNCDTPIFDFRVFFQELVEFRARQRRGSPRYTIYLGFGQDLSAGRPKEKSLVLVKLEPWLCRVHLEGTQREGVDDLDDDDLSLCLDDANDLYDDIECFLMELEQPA"}
{"Sequence": "CTCTACATGGGTATAGAGTAGTGCTAG", "log fluorescence": "-0.254 z-score"}
{"Sequence": "GACGATTTCGGTATCGAGACGTGCTAG", "log fluorescence": "1.71 z-score"}
{"Sequence": "TTTCCTCTTTCTTTGCTTCAGTGCTAG", "log fluorescence": "4.66 z-score"}
{"Sequence": "CCCCCAATCTCTCTTCACATGTGCTAG", "log fluorescence": "0.0345 z-score"}
{"Sequence": "TTAGAACTGAGGTATCGATTAGTGCTA", "log fluorescence": "0.389 z-score"}
{"Sequence": "GACGGTTACGACTATCGGGACGTGCTA", "log fluorescence": "-0.293 z-score"}
{"Sequence": "GACGATTTCAGGTCCGAGACGTGCTAG", "log fluorescence": "0.185 z-score"}
{"Sequence": "TTAGGTATAGGGTTTCGGTTAGTGCTA", "log fluorescence": "5.15 z-score"}
{"Sequence": "TCAGGACTGGGGTTTCGGTTAGTGCTA", "log fluorescence": "4.94 z-score"}
{"Sequence": "GTCGATCTCAGTTTCGAGACGTGCTAG", "log fluorescence": "4.53 z-score"}
{"Sequence": "TTAGAACAGAGACTGGATTAGTGCTAG", "log fluorescence": "-0.0497 z-score"}
{"Sequence": "TCACTTCTCCCTTTCAGTTTGTGCTAG", "log fluorescence": "1.81 z-score"}
{"Sequence": "TGAGGACTGGGTATCGGTTAGTGCTAG", "log fluorescence": "0.205 z-score"}
{"Sequence": "GCCGGACTGGGTCTCGGGACGTGCTAG", "log fluorescence": "-0.404 z-score"}
{"Sequence": "TTAGAAATCGGGTATCGATTAGTGCTA", "log fluorescence": "0.765 z-score"}
{"Sequence": "GACGCACTGGGGTATCGGGACGTGCTA", "log fluorescence": "-0.407 z-score"}
{"Sequence": "TCACCTATTTATATGAGACTGTGCTAG", "log fluorescence": "1.1 z-score"}
{"Sequence": "TCATGTCTTAGATTCCTACTGTGCTAG", "log fluorescence": "0.622 z-score"}
{"Sequence": "GACGATCTCAGTTTAGAGACGTGCTAG", "log fluorescence": "0.077 z-score"}
{"data": "Study 2", "target": "RING finger protein unkempt homolog, zinc fingers 1-6, GST-SBP tag (UNK, Homo sapiens, UniProt Q9C0B0, residues 30-357)", "method": "RNA Bind-n-Seq", "molecule type": "RNA", "medium": "in vitro", "concentration": "not given", "notes": "RNA with constant flanks, human and mouse sites, ends assumed", "relative to": "input RNA pool", "direction": "higher = stronger binding", "sequence of UniProt Q9C0B0 (30-357, looked up)": "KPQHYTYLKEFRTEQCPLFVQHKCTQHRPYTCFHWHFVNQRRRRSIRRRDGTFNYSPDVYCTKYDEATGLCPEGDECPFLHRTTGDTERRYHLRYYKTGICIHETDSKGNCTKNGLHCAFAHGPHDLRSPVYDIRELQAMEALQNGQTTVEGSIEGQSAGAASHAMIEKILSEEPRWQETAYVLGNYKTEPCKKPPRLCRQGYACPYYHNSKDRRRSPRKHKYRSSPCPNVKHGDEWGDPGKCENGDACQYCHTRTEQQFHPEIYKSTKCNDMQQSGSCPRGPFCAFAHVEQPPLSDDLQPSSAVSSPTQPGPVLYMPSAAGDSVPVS"}
{"Sequence": "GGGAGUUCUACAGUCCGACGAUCGAUCCCCUGGAACUGGAAUUACAGACAGUUAUGAGCUGCCAUGAGGGUGCAAGGAAUUAAACCCAGCUCCUCUGGAAGAACAGCUAGUGCUCCUUACUGCCGAGCCACCCUUUAUUGUUUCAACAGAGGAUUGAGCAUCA", "bound/input enrichment [ratio]": 0.212}
{"Sequence": "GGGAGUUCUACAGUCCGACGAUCGGCGGUCGGGCCGCACUCUCCGAGCCCAGAGCAGCGGAGAGACCGCGCGGCGGGGCUUGGGACGGGGACGCGGUGUCGGGGCCGAGGUGGGCCGAGAGCAGCCGCAGCCCCAGCGGCCGGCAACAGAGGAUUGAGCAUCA", "bound/input enrichment [ratio]": 0.33}
{"Sequence": "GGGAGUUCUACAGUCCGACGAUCAGGAACUGCAGAAUGGUCCUGGACUGGCUCCCAGUCUGUACCUUUUUCUCAUCUUUCCUGGAGAUGGGAGCAGCAUCCUAAGCCCUUCCGUGGCGACAUGUAAUACAUUUGAGGGAUGGACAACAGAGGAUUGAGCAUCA", "bound/input enrichment [ratio]": 0.26}
{"Sequence": "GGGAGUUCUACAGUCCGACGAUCGACUGUGGAAAAGCCUUCAGUCAGAGUUCCAGCCUUAUUUACCAUCAGAGAAUCCAUAAAGGAGAGAAGCCCUACGAAUGCCUCCAAUGCGGAAAAGCCUUCAGUAUGAGCACACAGCUUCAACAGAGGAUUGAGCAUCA", "bound/input enrichment [ratio]": 0.201}
{"Sequence": "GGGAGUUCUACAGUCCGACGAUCGCAGUGGUAAUUCAAAAUGAGAGGGUCCCCUGCCUCUAGAGUCAUCAUCUAAUUGGGGACAGGCAGACCUAGAUAAGAAAAGCAGAGAACUACUUUGGAAAACAGUUUAUCUGCUGUAAUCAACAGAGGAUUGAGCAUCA", "bound/input enrichment [ratio]": 0.32}
{"Sequence": "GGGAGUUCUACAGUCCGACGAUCAAGAGAGAAAGGAAGAAGAAGACAGGAAGCAAGAGUGUGGACGCAGCAAAACUUGGUGCUUCUGAAAAGAACGAAAGAUUGCUUAUAAAACCACAAUGGCAUGAUUUGCUUCCAUGCAAACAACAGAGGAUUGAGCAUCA", "bound/input enrichment [ratio]": 0.29}
{"Sequence": "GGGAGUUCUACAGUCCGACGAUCUUCUAUGACCCUGACACCAGCAUCAUUUACUUAUGUGGAAAGGGUGACAGCAGUAUUCGCUAUUUUGAGAUCACGGAUGAAUCCCCGUACGUCCACUACCUCAACACAUUCAGCAGCAAGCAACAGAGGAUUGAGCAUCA", "bound/input enrichment [ratio]": 0.175}
{"Sequence": "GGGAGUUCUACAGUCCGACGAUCGACUUUAUCAUAGUAACUAUUAAAGCAAAGUUAUAAGCACAACUUCAAAGGACUUCAUCCUUAUCAGCUCUCUUAACUUGUAUCUUCAUUAAGGAACUCUGCAAGGUUAAGUUUACUUUUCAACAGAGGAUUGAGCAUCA", "bound/input enrichment [ratio]": 0.709}
{"data": "Study 3", "target": "Prothrombin, mature alpha-thrombin (F2, Homo sapiens, UniProt P00734)", "method": "aptamer microarray, sandwich", "molecule type": "DNA with 2'F-ANA", "medium": "in vitro", "concentration": "200 nM", "notes": "whole 15-mer aptamer, many near background", "with": "Cy3 exosite-II aptamer, 400 nM", "direction": "higher = stronger binding", "sequence": "GGTTGGTGTGGTTGG"}
{"Modification": "2'F-ANA at 4 5 7 11 12 14", "mean fluorescence intensity [a.u.]": 98.4}
{"Modification": "2'F-ANA at 4 6 7 8 9 10 11 13 15", "mean fluorescence intensity [a.u.]": 65.2}
{"Modification": "2'F-ANA at 1 2 6 8 10 11 14", "mean fluorescence intensity [a.u.]": 177}
{"Modification": "2'F-ANA at 1 2 3 4 5 7 8 9 11 14", "mean fluorescence intensity [a.u.]": 45.6}
{"Modification": "2'F-ANA at 3 4 5 6 7 8 9 10 12 13 14 15", "mean fluorescence intensity [a.u.]": 68.8}
{"Modification": "2'F-ANA at 1 3 5 9 10 11 13 14 15", "mean fluorescence intensity [a.u.]": 68}
{"Modification": "2'F-ANA at 2 3 4 6 7 8 9 12 13 14", "mean fluorescence intensity [a.u.]": 223}
{"Modification": "2'F-ANA at 1 2 9 10 15", "mean fluorescence intensity [a.u.]": 53.7}
{"Modification": "2'F-ANA at 2 4 8 9 14", "mean fluorescence intensity [a.u.]": 97.8}
{"Modification": "2'F-ANA at 1 6 7 9 10 12 14 15", "mean fluorescence intensity [a.u.]": 58.4}
{"Modification": "2'F-ANA at 1 3 5 8 10 11 12 14 15", "mean fluorescence intensity [a.u.]": 50.6}
{"Modification": "2'F-ANA at 1 5 7 9 10 14", "mean fluorescence intensity [a.u.]": 75.8}
{"Modification": "2'F-ANA at 1 4 5 6 7 8 10 11", "mean fluorescence intensity [a.u.]": 83.4}
{"Modification": "2'F-ANA at 1 3 4 6 8 11 12 14 15", "mean fluorescence intensity [a.u.]": 80.4}
{"Modification": "2'F-ANA at 3 5 6 8 10 15", "mean fluorescence intensity [a.u.]": 54.3}
{"Modification": "2'F-ANA at 1 3 5 7 8 9 10 11 12 13 14 15", "mean fluorescence intensity [a.u.]": 78.9}
{"Modification": "2'F-ANA at 1 2 3 7 8 9 12 13", "mean fluorescence intensity [a.u.]": 374}
{"Modification": "2'F-ANA at 1 3 10 11 12 13 15", "mean fluorescence intensity [a.u.]": 113}
{"Modification": "2'F-ANA at 2 3 5 8 9 10 12 15", "mean fluorescence intensity [a.u.]": 59.5}
{"Modification": "2'F-ANA at 1 2 5 7 10 11 13", "mean fluorescence intensity [a.u.]": 59.2}
{"Modification": "2'F-ANA at 1 2 3 6 8 9 11 12 15", "mean fluorescence intensity [a.u.]": 322}
{"Modification": "2'F-ANA at 1 2 3 5 10 11 12 14 15", "mean fluorescence intensity [a.u.]": 60.7}
{"data": "Study 4", "target": "RNA binding protein fox-1 homolog 2, RRM domain, GST-SBP tag (RBFOX2, Homo sapiens, UniProt O43251-10, residues 100-194)", "method": "RNA Bind-n-Seq", "molecule type": "RNA", "medium": "in vitro", "concentration": "365 nM", "notes": "natural RNA segment, single round, ends assumed", "relative to": "no-protein control", "direction": "higher = stronger binding", "Target sequence (chain)": "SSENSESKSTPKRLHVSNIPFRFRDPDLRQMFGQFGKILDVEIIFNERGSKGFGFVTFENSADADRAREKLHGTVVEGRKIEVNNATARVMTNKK"}
{"Sequence": "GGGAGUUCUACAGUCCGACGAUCUGUAGACACUCUCCCAGCCAGCAGCGCUCCUGCUUGUCCACCUGAGCAACGCAAUCCACUCCAUGCUGACUGGCACCAGACAGUGAGCGGCUCAGGAGUGAUGGAAAGCGUGGAAUUCUCGGGUGCCAA", "RBNS enrichment (R)": 0.288}
{"Sequence": "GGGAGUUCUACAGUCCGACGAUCGUAAUGCAGCUUCCACUCCUCUCAUUGGAGGCCCUAUUUGGGAACACUGCAAGCCCUUAAUCAGCCCUCUGUGACAUAGGUAGCAGCCCACGGAGAUCCUAAGCUGGCUGUGGAAUUCUCGGGUGCCAA", "RBNS enrichment (R)": 0.365}
{"Sequence": "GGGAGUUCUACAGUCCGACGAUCCCCACUCGACGCCUUCCUCAACUGCAGCUGGCCACUAACACUGCUUCUGGGGACUUGGCUGCCAAGUGAUAAAAACGUUAACGACCUUUAAGUACUCUUCCAGAUGAGAGUGGAAUUCUCGGGUGCCAA", "RBNS enrichment (R)": 0.466}
{"Sequence": "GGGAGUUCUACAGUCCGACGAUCCCCCAGGGAUCCCCCAGCUCCCCCAGCCCCUGGCUUCCUGACCCUGCGCCUCACCCUCAGACUGGUGACCAGGCUUCUGAAAGCCAUUCUGGAUCAGUUGGCUUUUUUUUUGGAAUUCUCGGGUGCCAA", "RBNS enrichment (R)": 0.288}
{"Sequence": "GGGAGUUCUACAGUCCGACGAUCCAUAACUGCUGUCCUGCCUGCUCUCCUUGGGUUUCGGUUUUAAAAGCCUUUGUGGUUGAAAUGAAUAACGAUUCGGUUUUCUGAACUGUACACAUCCUUGUUCAGUUUUCUGGAAUUCUCGGGUGCCAA", "RBNS enrichment (R)": 0.333}
{"Sequence": "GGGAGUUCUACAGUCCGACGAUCCAUGUGGUGGCCCUACUGACUGGUAAUGGUUAGAGGCAUUUAUGGAUUUUUAGCUUUGAGGAAAAACCAUGACUUUUAACAAAUUUUUAUGGGUUAUAUGCCUAAACCCUUGGAAUUCUCGGGUGCCAA", "RBNS enrichment (R)": 0.392}
{"Sequence": "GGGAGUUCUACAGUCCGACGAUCCGGUGGAGGCCACGCCGUCGGUCGGGAACGGUCGCGUCGCCCGGGUCGCCGCCGCCGCCGCCGCCGUCAUCCUCGCCUCUCGCUUCCCUCUGGGAGCUGCGCGCGCUUCAUGGAAUUCUCGGGUGCCAA", "RBNS enrichment (R)": 0.222}
{"Sequence": "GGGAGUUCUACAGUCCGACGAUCGAAAACACCCAUUUUGAUACAAUGUAAACGUUCGUGUUCACCCUUGGAUACAUGUUGAAAGAGCUCUUUGGUACACGGAAGUGACAUCUUUGGGGUCAGUGUUACGAGGUUGGAAUUCUCGGGUGCCAA", "RBNS enrichment (R)": 0.538}
